Published values gathered from unrelated publications.
Numbers after ± are the reported error.
Target: Tyrosine-protein phosphatase non-receptor type 1 (PTPN1, Homo sapiens, UniProt P18031)
Observed: enzyme activity
Mode: inhibitor
Sequence (P18031 1-435, as in one of the studies): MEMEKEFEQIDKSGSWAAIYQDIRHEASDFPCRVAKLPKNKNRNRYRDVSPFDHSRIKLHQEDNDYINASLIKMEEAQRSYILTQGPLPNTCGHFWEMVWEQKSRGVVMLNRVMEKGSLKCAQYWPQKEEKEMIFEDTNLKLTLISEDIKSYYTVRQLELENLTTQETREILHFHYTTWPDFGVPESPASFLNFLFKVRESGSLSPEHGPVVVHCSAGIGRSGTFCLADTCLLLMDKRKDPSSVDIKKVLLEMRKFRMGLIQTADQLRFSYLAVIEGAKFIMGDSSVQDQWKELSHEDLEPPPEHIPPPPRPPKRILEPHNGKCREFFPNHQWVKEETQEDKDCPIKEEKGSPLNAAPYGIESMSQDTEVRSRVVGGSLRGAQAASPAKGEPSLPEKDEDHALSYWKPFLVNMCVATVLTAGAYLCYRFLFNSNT

Compound = CC(C)(O)C1=CCC(C2CC[C@]3(C)C2CCC2[C@@]4(C)CCC(O)C(C)(C)C4CC[C@]23C)C1=O (stereo partly drawn); method = absorbance; IC50 = 14.5 µM
Compound = C[C@@H]1O[C@@H](O[C@@H]2C(=O)c3c(O)cc(O)cc3O[C@@H]2c2ccc(O)cc2)[C@H](O)[C@H](O)[C@H]1O; method = absorbance; IC50 = 4.76 µM
Compound = CC1(CN)CCN(c2cnc(Sc3cccc(Cl)c3Cl)c(N)n2)CC1; method = fluorescence; IC50 = > 100 µM
Compound = C=CC1C(OC2OC(CO)C(O)C(O)C2O)OC=C(C(=O)OC)C1CC1CC(=O)CC(CC(=O)CCc2ccc(O)cc2)O1 (stereo not drawn); method = absorbance; IC50 = > 100 µM
Compound = COc1cc(O)cc(C=Cc2ccc(O)cc2)c1CC=C(C)CCC=C(C)C; method = absorbance; IC50 = 17.6 µM
Compound = N[C@@H](CCC(=O)N[C@@H](CS[Se]Cc1ccc(C(=O)Nc2cc(C(F)(F)F)c(Br)c(C(F)(F)F)c2)cc1)C(=O)NCC(=O)O)C(=O)O; together with = pNPP, GSH 1 mM; IC50 = 50 ± 20 µM
Compound = O=C1O[C@H]([C@H](O)c2ccc(O)cc2)c2cccc(O)c21; method = absorbance; IC50 = > 100 µM
Compound = CC(C)=CCCC(C)=CCCC(C)=CCc1c(O)cc(O)c(CC=C(C)C)c1-c1cc2ccc(O)cc2o1; method = absorbance; IC50 = 8.92 µM
Compound = CC(C)=CCc1c(O)cc(O)c2c1O[C@H](c1ccccc1)[C@@H](O)C2=O; method = absorbance; IC50 = 3.52 µM
Compound = CC(C)=CCCC1(C)C=Cc2c(O)cc(-c3cc4ccc(O)cc4o3)cc2O1 (stereo not drawn); method = absorbance; IC50 = > 100 µM
Compound = CC1=CC(=O)CC(C)(C)C1(O)C=CC(C)OC1OC(CO)C(O)C(O)C1O (stereo not drawn); method = absorbance; IC50 = > 100 µM
Compound = CC(C)=CCC[C@](C)(O[C@@H]1O[C@H](CO)[C@@H](O)[C@H](O)[C@H]1O)C1CC[C@]2(C)C1[C@H](O)CC1[C@@]3(C)CC[C@H](O[C@@H]4O[C@H](CO)[C@@H](O)[C@H](O)[C@H]4O[C@@H]4O[C@H](CO)[C@@H](O)[C@H](O)[C@H]4O[C@@H]4OC[C@@H](O)[C@H](O)[C@H]4O)C(C)(C)C3CC[C@]12C (stereo partly drawn); method = absorbance; pH = pH 7.4; IC50 = > 100 µM
Compound = COc1cc(OC2OC(COC3OC(CO)C(O)C(O)C3O)C(O)C(O)C2O)c2c(O)c3c(=O)cc(C)oc3cc2c1 (stereo not drawn); method = absorbance; IC50 = > 100 µM
Compound = O=c1ccc2ccc(O[C@@H]3O[C@H](CO)[C@@H](O)[C@H](O)[C@H]3O)c(O[C@@H]3O[C@H](CO)[C@@H](O)[C@H](O)[C@H]3O)c2o1; method = absorbance; IC50 = > 100 µM
Compound = CC(C)=CCc1cc(C2CC(=O)c3c(O)cc(O)cc3O2)c2c(c1O)C=CC(C)(C)O2 (stereo not drawn); method = absorbance; IC50 = 26.6 µM
Compound = CC(CO)C1CCC2(C)C3=CCC4C5(CCC(OC5=O)C4(C)C)C3=CCC12C (stereo not drawn); method = absorbance; IC50 = > 34.7 µM
Compound = O=c1ccc2cc(O[C@@H]3O[C@H](CO)[C@@H](O)[C@H](O)[C@H]3O)c(O[C@@H]3O[C@H](CO)[C@@H](O)[C@H](O)[C@H]3O)cc2o1; method = absorbance; IC50 = > 100 µM
Compound = CC(C)=CCCC(C)=CCc1c(O)ccc2cc(-c3cc(O)c4ccoc4c3)oc12; method = absorbance; IC50 = 18 µM
Compound = COc1cc(OC2OC(COC3OC(CO)C(O)C(OC4OC(COC5OC(CO)C(O)C(O)C5O)C(O)C(O)C4O)C3O)C(O)C(O)C2O)c2c(O)c3c(=O)cc(C)oc3cc2c1 (stereo not drawn); method = absorbance; IC50 = > 100 µM
Compound = COc1cc(O)cc(-c2cc3ccc(OC)cc3o2)c1; method = absorbance; IC50 = > 100 µM
Compound = O=C1CC(c2ccc(OC3OC(CO)C(O)C(O)C3O)cc2)Oc2cc(O)cc(O)c21 (stereo not drawn); method = absorbance; IC50 = > 100 µM
